Assay results collected from several papers.
Numbered parts are unrelated; each lists some results of a single study. Changes are numbered by the printed parent chain.

Sample 1
Target: CCNA2, cyclin fold, Cln2 fusion (human)
Method: yeast growth competition, sequencing
Medium: yeast
Notes: strong parent motif
Reference: not given
Direction: higher = stronger binding
Quantity: normalised enrichment score
Parent: CDKN1B docking peptide (human); PSACRNLFGPVDH; partner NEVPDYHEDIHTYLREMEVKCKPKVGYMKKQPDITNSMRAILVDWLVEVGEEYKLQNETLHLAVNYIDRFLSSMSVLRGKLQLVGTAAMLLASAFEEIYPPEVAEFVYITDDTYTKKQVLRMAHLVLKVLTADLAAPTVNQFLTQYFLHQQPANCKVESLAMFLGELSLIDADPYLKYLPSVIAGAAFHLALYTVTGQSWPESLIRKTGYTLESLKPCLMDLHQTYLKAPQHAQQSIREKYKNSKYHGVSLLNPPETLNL
PSACRNLFAPVDH [G9A]: 2.06
PSACRNLFNPVDH [G9N]: 1.43
PSACTNLFGPVDH [R5T]: -0.407
PSACRCLFGPVDH [N6C]: 3.22
PSACRNRFGPVDH [L7R]: 0.76
PSACRNLFGPADH [V11A]: 3.67
PSACRNLFGPVSH [D12S]: 3.75
PSACRNLFGPVDP [H13P]: 4.15

Sample 2
Target: FOS, bZIP domain (human)
Method: DHFR protein complementation
Medium: yeast
Notes: single substitutions, most at no-binding floor
Reference: wild-type JUN-FOS pair
Direction: higher = stronger binding
Quantity: binding fitness
Parent: JUN, bZIP domain (human); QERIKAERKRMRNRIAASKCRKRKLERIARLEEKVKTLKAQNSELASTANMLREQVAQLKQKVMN; partner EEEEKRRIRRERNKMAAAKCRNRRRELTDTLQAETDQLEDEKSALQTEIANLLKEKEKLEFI
R53Q: -0.569 natural log
L31C: -0.645 natural log
N42M: -0.407 natural log
T37F: -0.179 natural log
S47I: 0.00126 natural log
R30P: -0.268 natural log
S43P: -1.26 natural log
I28A: -0.146 natural log

Sample 3
Target: Centromere-binding protein 1, full length, N-terminal tag (CBF1, Saccharomyces cerevisiae, UniProt P17106, residues 1-351)
UniProt P17106, sequence (whole entry, looked up): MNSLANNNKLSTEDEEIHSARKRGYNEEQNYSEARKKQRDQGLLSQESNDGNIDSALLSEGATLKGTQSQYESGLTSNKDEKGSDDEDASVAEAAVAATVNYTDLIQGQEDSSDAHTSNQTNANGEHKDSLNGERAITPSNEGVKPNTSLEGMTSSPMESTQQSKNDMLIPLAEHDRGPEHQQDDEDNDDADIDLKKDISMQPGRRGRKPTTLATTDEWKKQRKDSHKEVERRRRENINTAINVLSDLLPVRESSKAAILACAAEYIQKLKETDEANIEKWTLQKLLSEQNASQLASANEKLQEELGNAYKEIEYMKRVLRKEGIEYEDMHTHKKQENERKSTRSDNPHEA
Method: protein-binding microarray
Form: double-stranded DNA, one strand shown
Medium: in vitro
Concentration: 0.8 µM
Notes: whole 60-bp probe, no competitor
Direction: higher = stronger binding
Quantity: fluorescence intensity
Shared flanks, not repeated: … GTCTTGATTCGCTTGACGCTGCTG
CCTAACTACTATATGTGCGTGATATAGCTTCGTACA: 602 a.u.
CTAGAATGCAGGGGTGACGTCCTTCTTCGGGTGTTC: 540 a.u.
GAATCAATCTTGCATCACCATTACCAGCACGATTAG: 558 a.u.
CTAAATGCACATTTGCACGTTCTAATAATGAAGTTC: 658 a.u.
CTAGCGAAGTAGAGTGACACGTCCATTACCCAGTTC: 542 a.u.
GAAATGAAGAACGCACACGTTCCGTACTAGAGATAG: 562 a.u.
CCTAACTACTATATGAACGTGGTATAGCTTCGTACA: 589 a.u.

Other studies, line by line
PhoQ, residues 284 288 289 292 302 303 SVTLVV
fold induction (PhoP, residues 12 14 15 18 19 NHFRA (Escherichia coli, UniProt P23836); Sort-seq, item: YFP reporter; E. coli; PhoQ-PhoP variant library, together with: 10 µM Mg2+; reference: high Mg2+ state, higher = stronger signaling): 1.38

Repeated from above (sample 1):
PSACRNLFGPVSH [D12S]: 3.75
PSACRNLFGPVDP [H13P]: 4.15
